Results of several laboratories.
Every numbered part comes from another study and shows a few of its results, in no order. Several values in a cell are separate wells, animals, samples, runs or records.
Chain of UniProt O00141 (whole entry, looked up): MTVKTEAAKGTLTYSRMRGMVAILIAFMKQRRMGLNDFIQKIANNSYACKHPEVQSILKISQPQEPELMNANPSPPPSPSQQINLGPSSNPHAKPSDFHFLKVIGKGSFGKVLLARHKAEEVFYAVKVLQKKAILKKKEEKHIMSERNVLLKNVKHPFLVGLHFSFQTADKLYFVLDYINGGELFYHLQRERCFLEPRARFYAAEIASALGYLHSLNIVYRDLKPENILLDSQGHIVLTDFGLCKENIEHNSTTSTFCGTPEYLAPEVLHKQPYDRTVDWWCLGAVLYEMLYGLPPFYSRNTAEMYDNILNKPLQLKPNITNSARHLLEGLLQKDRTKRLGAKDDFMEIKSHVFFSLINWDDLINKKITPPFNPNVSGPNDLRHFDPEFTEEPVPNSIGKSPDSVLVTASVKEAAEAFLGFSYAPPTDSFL
Chain of UniProt P23443 (whole entry, looked up): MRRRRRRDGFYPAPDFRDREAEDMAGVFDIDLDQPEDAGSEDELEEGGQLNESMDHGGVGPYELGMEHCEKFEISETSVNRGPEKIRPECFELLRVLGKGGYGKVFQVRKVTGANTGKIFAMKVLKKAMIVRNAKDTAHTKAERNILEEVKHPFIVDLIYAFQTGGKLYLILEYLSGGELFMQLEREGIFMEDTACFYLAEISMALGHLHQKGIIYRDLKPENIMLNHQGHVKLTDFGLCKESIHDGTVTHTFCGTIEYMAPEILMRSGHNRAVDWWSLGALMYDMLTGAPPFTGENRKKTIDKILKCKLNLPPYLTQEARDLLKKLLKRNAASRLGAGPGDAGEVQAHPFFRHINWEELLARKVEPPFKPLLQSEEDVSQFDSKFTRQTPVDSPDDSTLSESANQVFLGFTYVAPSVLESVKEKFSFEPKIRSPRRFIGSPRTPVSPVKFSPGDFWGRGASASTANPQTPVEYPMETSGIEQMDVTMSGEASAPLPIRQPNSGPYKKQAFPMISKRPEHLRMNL
Chain of UniProt Q15746 (whole entry, looked up): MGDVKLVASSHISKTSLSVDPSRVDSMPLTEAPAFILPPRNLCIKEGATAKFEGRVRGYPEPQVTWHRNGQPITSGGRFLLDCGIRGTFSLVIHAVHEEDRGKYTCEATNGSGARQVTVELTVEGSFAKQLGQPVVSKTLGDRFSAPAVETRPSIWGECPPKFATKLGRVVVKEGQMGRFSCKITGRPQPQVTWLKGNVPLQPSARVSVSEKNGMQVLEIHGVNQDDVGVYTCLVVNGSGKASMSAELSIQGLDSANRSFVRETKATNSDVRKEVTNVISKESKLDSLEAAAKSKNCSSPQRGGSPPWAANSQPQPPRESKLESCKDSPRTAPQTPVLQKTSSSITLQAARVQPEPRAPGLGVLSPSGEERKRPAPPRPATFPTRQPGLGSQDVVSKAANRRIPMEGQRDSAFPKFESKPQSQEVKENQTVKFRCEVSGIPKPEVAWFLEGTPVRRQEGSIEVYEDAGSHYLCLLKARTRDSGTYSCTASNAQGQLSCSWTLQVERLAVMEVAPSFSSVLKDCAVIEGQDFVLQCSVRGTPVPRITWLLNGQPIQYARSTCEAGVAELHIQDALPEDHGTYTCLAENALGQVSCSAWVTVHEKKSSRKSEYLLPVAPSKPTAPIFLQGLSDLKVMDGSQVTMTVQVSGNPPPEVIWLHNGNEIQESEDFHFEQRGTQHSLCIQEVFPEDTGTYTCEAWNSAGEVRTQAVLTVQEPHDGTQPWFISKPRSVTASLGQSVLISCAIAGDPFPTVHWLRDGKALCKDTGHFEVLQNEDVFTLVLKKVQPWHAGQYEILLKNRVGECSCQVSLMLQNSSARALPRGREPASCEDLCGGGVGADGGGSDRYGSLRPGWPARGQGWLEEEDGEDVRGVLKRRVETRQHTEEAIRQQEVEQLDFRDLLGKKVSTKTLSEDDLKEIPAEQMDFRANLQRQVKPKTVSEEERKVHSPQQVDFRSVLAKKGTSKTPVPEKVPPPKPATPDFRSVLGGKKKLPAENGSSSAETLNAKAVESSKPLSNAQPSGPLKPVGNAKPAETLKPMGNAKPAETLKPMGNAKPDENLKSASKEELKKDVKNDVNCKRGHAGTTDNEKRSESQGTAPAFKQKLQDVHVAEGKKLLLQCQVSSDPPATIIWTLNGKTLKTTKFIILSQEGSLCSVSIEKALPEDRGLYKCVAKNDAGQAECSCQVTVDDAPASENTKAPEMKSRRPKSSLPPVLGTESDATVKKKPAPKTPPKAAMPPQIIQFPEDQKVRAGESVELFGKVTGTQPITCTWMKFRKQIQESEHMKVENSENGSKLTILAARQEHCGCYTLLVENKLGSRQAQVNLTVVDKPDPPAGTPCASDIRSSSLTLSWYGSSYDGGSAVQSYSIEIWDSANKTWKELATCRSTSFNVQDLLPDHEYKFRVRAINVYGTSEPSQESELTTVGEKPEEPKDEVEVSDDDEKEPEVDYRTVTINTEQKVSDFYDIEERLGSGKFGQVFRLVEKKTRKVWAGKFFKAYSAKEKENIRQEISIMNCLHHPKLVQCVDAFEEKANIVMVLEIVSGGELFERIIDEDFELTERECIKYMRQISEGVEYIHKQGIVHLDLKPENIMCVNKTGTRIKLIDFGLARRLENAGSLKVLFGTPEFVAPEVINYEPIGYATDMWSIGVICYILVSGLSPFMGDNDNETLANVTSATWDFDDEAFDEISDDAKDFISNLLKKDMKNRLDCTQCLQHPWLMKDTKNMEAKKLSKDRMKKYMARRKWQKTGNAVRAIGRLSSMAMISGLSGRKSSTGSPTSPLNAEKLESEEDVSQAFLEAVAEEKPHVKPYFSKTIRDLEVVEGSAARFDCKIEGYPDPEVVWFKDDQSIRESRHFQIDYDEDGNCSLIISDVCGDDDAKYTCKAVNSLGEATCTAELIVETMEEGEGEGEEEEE
Chain of UniProt P41240 (whole entry, looked up): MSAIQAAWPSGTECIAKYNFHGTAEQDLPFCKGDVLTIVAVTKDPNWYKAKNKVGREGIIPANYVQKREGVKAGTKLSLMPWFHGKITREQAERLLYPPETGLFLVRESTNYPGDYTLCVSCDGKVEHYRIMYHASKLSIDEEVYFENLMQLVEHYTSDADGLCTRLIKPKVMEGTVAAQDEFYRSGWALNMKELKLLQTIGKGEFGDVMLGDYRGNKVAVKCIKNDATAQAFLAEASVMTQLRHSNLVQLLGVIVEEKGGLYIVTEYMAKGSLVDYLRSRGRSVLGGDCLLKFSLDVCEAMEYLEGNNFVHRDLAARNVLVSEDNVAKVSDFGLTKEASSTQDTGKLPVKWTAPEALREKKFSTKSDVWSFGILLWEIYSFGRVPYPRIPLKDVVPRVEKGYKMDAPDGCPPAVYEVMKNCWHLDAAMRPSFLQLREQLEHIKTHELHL
Chain of UniProt P43250 (whole entry, looked up): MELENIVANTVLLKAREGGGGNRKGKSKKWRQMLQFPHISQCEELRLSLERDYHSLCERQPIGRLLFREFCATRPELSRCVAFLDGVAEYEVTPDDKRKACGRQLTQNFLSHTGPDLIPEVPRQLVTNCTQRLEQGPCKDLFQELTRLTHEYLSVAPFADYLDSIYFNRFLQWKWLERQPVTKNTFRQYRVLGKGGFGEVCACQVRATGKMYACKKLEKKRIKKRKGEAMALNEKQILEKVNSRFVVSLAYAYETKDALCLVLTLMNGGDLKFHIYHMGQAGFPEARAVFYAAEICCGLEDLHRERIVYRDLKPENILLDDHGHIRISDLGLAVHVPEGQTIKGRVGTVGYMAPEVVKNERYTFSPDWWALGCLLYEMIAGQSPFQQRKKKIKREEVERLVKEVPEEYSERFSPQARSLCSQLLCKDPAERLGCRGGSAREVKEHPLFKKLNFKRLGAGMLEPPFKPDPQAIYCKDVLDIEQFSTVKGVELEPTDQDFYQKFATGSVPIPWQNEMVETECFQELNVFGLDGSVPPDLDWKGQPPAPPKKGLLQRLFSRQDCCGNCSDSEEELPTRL
Chain of UniProt P49840 (whole entry, looked up): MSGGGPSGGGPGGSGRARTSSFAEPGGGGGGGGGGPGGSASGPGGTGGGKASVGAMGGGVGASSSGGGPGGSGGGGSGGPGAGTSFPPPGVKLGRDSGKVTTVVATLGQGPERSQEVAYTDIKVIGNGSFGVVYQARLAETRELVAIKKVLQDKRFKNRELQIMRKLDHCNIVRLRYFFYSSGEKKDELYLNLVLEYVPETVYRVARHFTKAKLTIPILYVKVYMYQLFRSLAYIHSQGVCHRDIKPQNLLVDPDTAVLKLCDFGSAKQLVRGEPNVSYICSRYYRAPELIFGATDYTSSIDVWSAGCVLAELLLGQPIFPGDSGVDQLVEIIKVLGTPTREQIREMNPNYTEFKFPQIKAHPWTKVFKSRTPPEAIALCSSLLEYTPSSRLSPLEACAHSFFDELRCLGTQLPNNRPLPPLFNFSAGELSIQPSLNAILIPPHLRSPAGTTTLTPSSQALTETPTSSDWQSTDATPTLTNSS

Block 1
Cell line: HaCaT
Tested at: 100 µM
Time: 36 h
Structure (SMILES)	viability [%]
COc1ccc(C(CN(C)C)C2(O)CCCCC2)cc1 (stereo not shown)	78.1
O=P1(NCCCl)OCCCN1CCCl (stereo not shown)	93.1
CC(CCc1ccccc1)NC(C)C(O)c1ccc(O)cc1 (stereo not shown)	90.5

Block 2
SMILES: COc1ccc2c(c[n+](C)c3c4cc5c(cc4ccc23)OCO5)c1OC
Observed: enzyme activity
Action: inhibitor
Tested at: 0.5 µM
Reference: control
target	remaining activity
NUAK family SNF1-like kinase 1 (NUAK1, Homo sapiens, UniProt O60285)	96.6%
Receptor-type tyrosine-protein kinase FLT3 (FLT3, Homo sapiens, UniProt P36888)	76.9%
Ribosomal protein S6 kinase beta-1 (RPS6KB1, Homo sapiens, UniProt P23443)	99.8%
Glycogen synthase kinase-3 alpha (GSK3A, Homo sapiens, UniProt P49840)	105%
Protein kinase C gamma type (PRKCG, Homo sapiens, UniProt P05129)	87.2%
Myosin light chain kinase, smooth muscle (MYLK, Homo sapiens, UniProt Q15746)	100%
Ribosomal protein S6 kinase alpha-1 (RPS6KA1, Homo sapiens, UniProt Q15418)	104%
G protein-coupled receptor kinase 6 (GRK6, Homo sapiens, UniProt P43250)	104%
Aurora kinase C (AURKC, Homo sapiens, UniProt Q9UQB9)	93.5%
Tyrosine-protein kinase CSK (CSK, Homo sapiens, UniProt P41240)	106%
Serine/threonine-protein kinase Sgk1 (SGK1, Homo sapiens, UniProt O00141)	118%
Serine/threonine-protein kinase PAK 2 (PAK2, Homo sapiens, UniProt Q13177)	101%
SRSF protein kinase 3 (SRPK3, Homo sapiens, UniProt Q9UPE1)	96.1%
Ephrin type-A receptor 7 (EPHA7, Homo sapiens, UniProt Q15375)	95.4%
Serine/threonine-protein kinase pim-2 (PIM2, Homo sapiens, UniProt Q9P1W9)	105%
Macrophage colony-stimulating factor 1 receptor (CSF1R, Homo sapiens, UniProt P07333)	99%
Ephrin type-B receptor 2 (EPHB2, Homo sapiens, UniProt P29323)	97.1%
Cytoplasmic tyrosine-protein kinase BMX (BMX, Homo sapiens, UniProt P51813)	104%
Beta-adrenergic receptor kinase 1 (GRK2, Homo sapiens, UniProt P25098)	96.6%
Fibroblast growth factor receptor 4 (FGFR4, Homo sapiens, UniProt P22455)	90.1%
Protein kinase C epsilon type (PRKCE, Homo sapiens, UniProt Q02156)	93.6%

Block 3
SMILES: CNC(=O)c1ccc(-c2cnn3ccc(C(=O)N(C)c4ccc(Cl)c(C(=O)OC)c4)cc23)cc1
Organism: Cryptosporidium parvum
Species: neonatal calves
Dose: dose not given
Direction: direction not given
conditions	fecal consistency score
day 11 post-treatment	1 and 2
day 12 post-treatment	1
day 4, second reading	2 and 1
day 4 post-treatment	1 and 2
day 1 post-treatment	2 and 3
day 13 post-treatment	1
day 10 post-treatment	1 and 2

Block 4
Target: Eukaryotic initiation factor 4A-III (Homo sapiens, UniProt P38919)
Chain of UniProt P38919 (whole entry, looked up): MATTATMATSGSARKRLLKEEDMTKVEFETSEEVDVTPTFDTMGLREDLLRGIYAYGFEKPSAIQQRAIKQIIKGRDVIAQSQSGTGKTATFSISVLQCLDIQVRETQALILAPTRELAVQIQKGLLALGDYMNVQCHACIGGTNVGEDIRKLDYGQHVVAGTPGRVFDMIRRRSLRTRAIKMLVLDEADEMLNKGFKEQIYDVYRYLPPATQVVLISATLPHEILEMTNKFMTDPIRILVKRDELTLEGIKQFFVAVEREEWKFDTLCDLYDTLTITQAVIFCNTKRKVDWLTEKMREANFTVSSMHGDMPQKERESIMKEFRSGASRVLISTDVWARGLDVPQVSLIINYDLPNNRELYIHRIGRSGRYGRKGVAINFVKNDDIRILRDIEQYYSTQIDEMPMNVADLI
Observed: RNA clamping
Method: fluorescence polarization
Tested at: concentration not given
Notes: mean of two replicates
Added: FAM-labelled poly r(AG)8 RNA
Compound	fluorescence polarization change [mP]
[2H]C([2H])([2H])C1=N[C@@]2(O)[C@H](C(=O)OC)[C@@H](c3ccccc3)[C@]3(c4ccc(OC)cc4)Oc4cc(OC)cc(OC)c4[C@]23N1	36.1
COc1ccc([C@]23Oc4cc(OC)cc(OC)c4[C@](O)([C@H](c4ccccc4)[C@H]2C(=O)NCCCCNC(=O)c2ccccc2)[C@H]3O)cc1	1.3
COc1ccc([C@@]23Oc4cc(OC)cc(OC)c4[C@]2(OC)c2nc(-c4ccccc4)nc(OC)c2[C@H]3c2ccccc2)cc1	0.6
COC(=O)[C@@H]1[C@@H](c2ccccc2)[C@]2(c3ccc(OC)cc3)Oc3cc(OC)cc(OC)c3[C@@]23OC(c2ccc(Cl)nc2)=N[C@@]13O	9.4
COc1ccc([C@@]23Oc4cc(OC)cc(OC)c4[C@]2(O)c2nc(-c4ccc(Cl)cc4)[nH]c(=O)c2[C@H]3c2ccccc2)cc1	6.7
COc1ccc([C@@]23Oc4cc(OC)cc(OC)c4[C@]2(O)[C@H](O)C[C@H]3c2ccccc2)cc1	45
COc1ccc([C@@]23Oc4cc(OC)cc(OC)c4[C@@]24NC(C)=NC4=C(C=O)[C@H]3c2ccccc2)cc1	23
COc1ccc([C@@]23Oc4cc(OC)cc(OC)c4[C@]2(O)c2nc(-c4cnccn4)[nH]c(=O)c2[C@H]3c2ccccc2)cc1	22.2
COC(=O)[C@@H]1[C@@H](O)[C@@]2(O)c3c(OC)cc(OC)cc3O[C@@]2(c2ccc(Br)cc2)[C@H]1c1ccccc1	13

Other studies, line by line
Structure (SMILES)	target	assay	conditions	quantity	value
C=CC(=O)Nc1ccc2[nH]c(=O)n(C3CCN(Cc4ccc(-c5ccc6c(c5)NC(=O)CO6)cc4)CC3)c2c1	RAC-beta serine/threonine-protein kinase (AKT2, Homo sapiens, UniProt P31751)	target engagement in cells, BRET	–	IC50	8.3 µM
O=c1nc(-c2ccccn2)sc2ccccc12	Serine/threonine-protein kinase PknB (pknB, Mycobacterium tuberculosis, UniProt P9WI81)	cell-free assay, competition with immobilised ligand	1 µM	remaining binding	88%
N#CC1(c2ccccn2)CCN(Cc2cc(C(=O)O)c(=O)n3ccccc23)CC1	5-hydroxytryptamine receptor 1B (HTR1B, Homo sapiens, UniProt P28222)	binding, radioligand binding	10 µM	inhibition	2.72%

A few entries again (block 4):
Compound	fluorescence polarization change [mP]
[2H]C([2H])([2H])C1=N[C@@]2(O)[C@H](C(=O)OC)[C@@H](c3ccccc3)[C@]3(c4ccc(OC)cc4)Oc4cc(OC)cc(OC)c4[C@]23N1	36.1
COc1ccc([C@]23Oc4cc(OC)cc(OC)c4[C@](O)([C@H](c4ccccc4)[C@H]2C(=O)NCCCCNC(=O)c2ccccc2)[C@H]3O)cc1	1.3
COc1ccc([C@@]23Oc4cc(OC)cc(OC)c4[C@]2(OC)c2nc(-c4ccccc4)nc(OC)c2[C@H]3c2ccccc2)cc1	0.6
COC(=O)[C@@H]1[C@@H](c2ccccc2)[C@]2(c3ccc(OC)cc3)Oc3cc(OC)cc(OC)c3[C@@]23OC(c2ccc(Cl)nc2)=N[C@@]13O	9.4
COc1ccc([C@@]23Oc4cc(OC)cc(OC)c4[C@]2(O)c2nc(-c4ccc(Cl)cc4)[nH]c(=O)c2[C@H]3c2ccccc2)cc1	6.7
COc1ccc([C@@]23Oc4cc(OC)cc(OC)c4[C@]2(O)[C@H](O)C[C@H]3c2ccccc2)cc1	45
COc1ccc([C@@]23Oc4cc(OC)cc(OC)c4[C@@]24NC(C)=NC4=C(C=O)[C@H]3c2ccccc2)cc1	23
